Measurements of several laboratories.
Parts stem from different laboratories: compare values within a part only. Substitutions count along the parent as printed.

Sample 1
Target: Prothrombin, mature alpha-thrombin (F2, Homo sapiens, UniProt P00734)
Method: aptamer microarray, sandwich
Molecule type: DNA with 2'F-ANA
Medium: in vitro
Concentration: 200 nM
Setting: whole 15-mer aptamer, many near background
Added: Cy3 exosite-II aptamer, 400 nM
Reading: higher = stronger binding
Oligonucleotide: GGTTGGTGTGGTTGG
Modification	mean fluorescence intensity [a.u.]
2'F-ANA at 1 2 3 4 6 8 9 10 12 14	52.4
2'F-ANA at 1 2 4 7 8 9 13 14	61.4
2'F-ANA at 1 2 3 6 9 10 13 14 15	56.6
2'F-ANA at 7 10 12 15	240
2'F-ANA at 1 2 3 5 6 7 8 10 14 15	55.1
2'F-ANA at 1 2 3 6 10 13	59.4
2'F-ANA at 3 6 11 12 14	609
2'F-ANA at 1 5 8 9 10 11 13	48.6
2'F-ANA at 1 3 4 6 8 9 12 15	390
2'F-ANA at 2 3 6 9 13 14 15	290

Sample 2
Target: ABI1, truncated, D143A, DHFR fusion (Arabidopsis thaliana)
Method: DHFR PCA, deep sequencing
Medium: yeast
Setting: methotrexate growth selection, single substitutions
Added: (+)-ABA 0.032 µM
Reference: wild-type fitted maximum
Reading: higher = stronger binding
Starting sequence: PYL1, truncated, DHFR fusion (Arabidopsis thaliana); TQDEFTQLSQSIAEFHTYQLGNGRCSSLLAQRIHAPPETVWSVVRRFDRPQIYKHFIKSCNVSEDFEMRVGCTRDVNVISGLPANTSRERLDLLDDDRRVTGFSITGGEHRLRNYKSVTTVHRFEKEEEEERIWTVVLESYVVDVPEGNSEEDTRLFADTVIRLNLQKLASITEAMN; partner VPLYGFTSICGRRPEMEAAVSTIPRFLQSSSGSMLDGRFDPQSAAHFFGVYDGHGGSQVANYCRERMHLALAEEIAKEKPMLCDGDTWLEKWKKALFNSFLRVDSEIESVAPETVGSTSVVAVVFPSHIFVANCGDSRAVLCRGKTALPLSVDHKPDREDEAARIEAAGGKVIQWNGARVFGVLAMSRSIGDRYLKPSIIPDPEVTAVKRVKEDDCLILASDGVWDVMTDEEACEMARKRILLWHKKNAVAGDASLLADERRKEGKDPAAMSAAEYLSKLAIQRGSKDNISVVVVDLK
Variant	relative binding score
L164V	8.6%
N149K	8.92%
Q7D	27.1%
S9C	9.35%
K168V	-2.84%
D48A	-4.97%
H55V	49.1%
L91F	-1.06%
V136D	-1.91%
P37L	-3.58%
S117T	7.73%

Sample 3
Target: CCND1, cyclin fold, Cln2 fusion (human)
Method: yeast growth competition, sequencing
Medium: yeast
Setting: weak parent motif
Reference: not given
Reading: higher = stronger binding
Starting sequence: GMNC docking peptide (human); KNAKRNLSSEFAN
Variant	normalised enrichment score
N2K	0.916
A3R	0.0782
L7T	0.471
E10N	0.0163
A3V	0.739
A3P	-0.2
E10S	-0.108
A3C	0.404
F11Q	0.325
N2R	0.748

Other studies, line by line
Substance	target	assay	system	conditions	scale	quantity	result
PhoQ, residues 284 288 289 292 302 303 SIHLQL	PhoP, residues 12 14 15 18 19 SMASL (Escherichia coli, UniProt P23836)	Sort-seq, refers to: YFP reporter	E. coli	PhoQ-PhoP variant library, added: 10 µM Mg2+	reference: high Mg2+ state, higher = stronger signaling	fold induction	15.3
